Published values gathered from unrelated publications.
Numbered parts are unrelated; each lists some results of a single study.
Sequence of UniProt P11802 (whole entry, looked up): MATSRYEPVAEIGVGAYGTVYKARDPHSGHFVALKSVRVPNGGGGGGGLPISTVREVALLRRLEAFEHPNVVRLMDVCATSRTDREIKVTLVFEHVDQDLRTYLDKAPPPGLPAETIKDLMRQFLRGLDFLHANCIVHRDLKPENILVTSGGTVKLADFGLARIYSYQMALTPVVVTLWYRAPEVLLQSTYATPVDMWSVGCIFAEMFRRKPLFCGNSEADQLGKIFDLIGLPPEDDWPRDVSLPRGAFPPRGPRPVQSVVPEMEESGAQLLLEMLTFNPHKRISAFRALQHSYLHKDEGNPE
Sequence of UniProt P49840 (whole entry, looked up): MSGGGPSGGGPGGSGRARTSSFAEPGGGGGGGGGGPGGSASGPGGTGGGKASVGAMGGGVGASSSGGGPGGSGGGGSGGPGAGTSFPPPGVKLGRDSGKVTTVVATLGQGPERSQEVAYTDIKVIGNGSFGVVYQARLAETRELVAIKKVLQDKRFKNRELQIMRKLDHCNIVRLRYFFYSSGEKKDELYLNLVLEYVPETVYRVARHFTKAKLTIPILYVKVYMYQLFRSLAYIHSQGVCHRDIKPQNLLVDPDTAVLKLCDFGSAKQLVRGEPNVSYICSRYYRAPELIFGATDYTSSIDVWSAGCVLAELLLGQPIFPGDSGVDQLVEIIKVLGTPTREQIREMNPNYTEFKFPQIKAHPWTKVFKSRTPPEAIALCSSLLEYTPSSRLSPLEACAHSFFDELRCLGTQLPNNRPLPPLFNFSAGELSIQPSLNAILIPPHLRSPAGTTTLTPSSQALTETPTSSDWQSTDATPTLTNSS
Sequence of UniProt P42338 (whole entry, looked up): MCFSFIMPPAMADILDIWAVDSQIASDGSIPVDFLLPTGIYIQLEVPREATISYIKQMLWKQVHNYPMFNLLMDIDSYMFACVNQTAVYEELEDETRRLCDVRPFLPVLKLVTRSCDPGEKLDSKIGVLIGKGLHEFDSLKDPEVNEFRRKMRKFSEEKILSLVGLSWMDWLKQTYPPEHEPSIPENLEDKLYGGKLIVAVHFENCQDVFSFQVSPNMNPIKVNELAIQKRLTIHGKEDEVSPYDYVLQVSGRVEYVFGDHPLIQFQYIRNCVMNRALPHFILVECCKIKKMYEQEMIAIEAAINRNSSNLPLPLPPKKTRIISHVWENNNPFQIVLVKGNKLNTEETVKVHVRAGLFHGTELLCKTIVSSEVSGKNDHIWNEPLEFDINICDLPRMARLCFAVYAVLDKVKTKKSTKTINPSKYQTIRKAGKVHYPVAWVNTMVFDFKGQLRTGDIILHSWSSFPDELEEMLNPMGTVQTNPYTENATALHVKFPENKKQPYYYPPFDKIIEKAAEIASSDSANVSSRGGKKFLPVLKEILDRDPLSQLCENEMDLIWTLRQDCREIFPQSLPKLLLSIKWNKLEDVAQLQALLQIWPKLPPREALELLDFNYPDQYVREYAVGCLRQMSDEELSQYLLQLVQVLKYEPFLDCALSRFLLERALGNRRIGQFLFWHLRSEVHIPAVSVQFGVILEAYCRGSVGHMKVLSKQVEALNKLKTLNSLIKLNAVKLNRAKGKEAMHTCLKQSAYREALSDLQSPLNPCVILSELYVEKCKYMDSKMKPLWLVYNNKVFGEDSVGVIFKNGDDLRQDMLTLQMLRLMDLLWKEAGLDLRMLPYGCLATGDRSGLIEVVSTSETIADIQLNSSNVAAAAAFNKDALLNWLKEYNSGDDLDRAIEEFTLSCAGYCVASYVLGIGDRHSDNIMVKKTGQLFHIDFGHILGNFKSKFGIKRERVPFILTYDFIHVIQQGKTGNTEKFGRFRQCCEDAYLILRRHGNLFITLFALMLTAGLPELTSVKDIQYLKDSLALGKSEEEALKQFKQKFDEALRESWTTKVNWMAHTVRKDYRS
Sequence of UniProt Q8N752 (whole entry, looked up): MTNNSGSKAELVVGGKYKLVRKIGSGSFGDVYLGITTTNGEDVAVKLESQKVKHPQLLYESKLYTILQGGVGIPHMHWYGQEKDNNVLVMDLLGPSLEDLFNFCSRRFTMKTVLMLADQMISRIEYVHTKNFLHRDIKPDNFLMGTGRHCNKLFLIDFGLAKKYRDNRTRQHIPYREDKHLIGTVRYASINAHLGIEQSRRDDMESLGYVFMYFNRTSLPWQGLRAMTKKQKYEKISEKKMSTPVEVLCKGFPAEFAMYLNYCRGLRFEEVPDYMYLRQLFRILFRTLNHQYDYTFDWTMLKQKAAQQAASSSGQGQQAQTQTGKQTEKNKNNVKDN
Sequence of UniProt O94804 (whole entry, looked up): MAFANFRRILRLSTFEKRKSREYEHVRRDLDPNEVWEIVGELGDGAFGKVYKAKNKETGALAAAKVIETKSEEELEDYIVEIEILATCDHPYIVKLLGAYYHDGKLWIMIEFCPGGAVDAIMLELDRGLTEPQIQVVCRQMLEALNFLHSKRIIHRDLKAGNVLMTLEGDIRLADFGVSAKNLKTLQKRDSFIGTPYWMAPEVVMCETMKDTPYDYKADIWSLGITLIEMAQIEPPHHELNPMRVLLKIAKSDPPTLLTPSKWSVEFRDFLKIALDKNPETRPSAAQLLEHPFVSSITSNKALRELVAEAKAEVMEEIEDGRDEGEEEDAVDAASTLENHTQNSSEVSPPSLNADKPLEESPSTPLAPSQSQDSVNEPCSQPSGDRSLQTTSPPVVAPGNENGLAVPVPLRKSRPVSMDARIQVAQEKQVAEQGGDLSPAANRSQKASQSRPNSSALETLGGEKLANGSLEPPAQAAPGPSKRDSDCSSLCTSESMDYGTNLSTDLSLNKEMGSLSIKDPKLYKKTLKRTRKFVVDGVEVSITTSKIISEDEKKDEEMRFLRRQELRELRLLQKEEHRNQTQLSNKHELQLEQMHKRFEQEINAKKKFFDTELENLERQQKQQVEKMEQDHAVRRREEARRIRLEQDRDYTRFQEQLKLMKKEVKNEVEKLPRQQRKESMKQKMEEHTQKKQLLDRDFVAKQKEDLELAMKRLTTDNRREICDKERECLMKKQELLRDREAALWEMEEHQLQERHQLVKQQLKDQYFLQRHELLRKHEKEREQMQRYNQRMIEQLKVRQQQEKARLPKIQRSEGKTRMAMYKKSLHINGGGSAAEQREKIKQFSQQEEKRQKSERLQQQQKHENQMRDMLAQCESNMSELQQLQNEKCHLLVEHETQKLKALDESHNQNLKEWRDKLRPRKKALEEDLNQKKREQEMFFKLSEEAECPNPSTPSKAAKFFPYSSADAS
Sequence of UniProt P45984 (whole entry, looked up): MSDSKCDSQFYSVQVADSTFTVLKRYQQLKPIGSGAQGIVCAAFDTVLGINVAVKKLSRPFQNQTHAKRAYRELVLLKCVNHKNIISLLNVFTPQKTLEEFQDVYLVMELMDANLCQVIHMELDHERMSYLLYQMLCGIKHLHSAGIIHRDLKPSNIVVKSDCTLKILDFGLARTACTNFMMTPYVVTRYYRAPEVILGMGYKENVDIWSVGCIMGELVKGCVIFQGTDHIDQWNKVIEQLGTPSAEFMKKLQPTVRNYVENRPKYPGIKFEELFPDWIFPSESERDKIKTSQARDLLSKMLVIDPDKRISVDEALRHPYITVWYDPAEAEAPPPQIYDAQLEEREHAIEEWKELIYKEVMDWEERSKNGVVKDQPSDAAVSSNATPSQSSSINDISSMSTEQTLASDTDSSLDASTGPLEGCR
Sequence of UniProt Q9UIK4 (whole entry, looked up): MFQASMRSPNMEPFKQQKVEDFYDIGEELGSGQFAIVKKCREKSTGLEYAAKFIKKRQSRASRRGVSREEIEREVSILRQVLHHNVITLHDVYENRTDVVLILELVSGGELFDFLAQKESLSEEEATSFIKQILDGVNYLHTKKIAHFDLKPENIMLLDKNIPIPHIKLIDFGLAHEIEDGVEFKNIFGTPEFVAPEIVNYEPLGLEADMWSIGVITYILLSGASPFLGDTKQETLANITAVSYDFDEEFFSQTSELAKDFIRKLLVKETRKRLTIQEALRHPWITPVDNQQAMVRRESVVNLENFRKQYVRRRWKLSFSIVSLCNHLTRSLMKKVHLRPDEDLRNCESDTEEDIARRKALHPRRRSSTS
Sequence of UniProt O14920 (whole entry, looked up): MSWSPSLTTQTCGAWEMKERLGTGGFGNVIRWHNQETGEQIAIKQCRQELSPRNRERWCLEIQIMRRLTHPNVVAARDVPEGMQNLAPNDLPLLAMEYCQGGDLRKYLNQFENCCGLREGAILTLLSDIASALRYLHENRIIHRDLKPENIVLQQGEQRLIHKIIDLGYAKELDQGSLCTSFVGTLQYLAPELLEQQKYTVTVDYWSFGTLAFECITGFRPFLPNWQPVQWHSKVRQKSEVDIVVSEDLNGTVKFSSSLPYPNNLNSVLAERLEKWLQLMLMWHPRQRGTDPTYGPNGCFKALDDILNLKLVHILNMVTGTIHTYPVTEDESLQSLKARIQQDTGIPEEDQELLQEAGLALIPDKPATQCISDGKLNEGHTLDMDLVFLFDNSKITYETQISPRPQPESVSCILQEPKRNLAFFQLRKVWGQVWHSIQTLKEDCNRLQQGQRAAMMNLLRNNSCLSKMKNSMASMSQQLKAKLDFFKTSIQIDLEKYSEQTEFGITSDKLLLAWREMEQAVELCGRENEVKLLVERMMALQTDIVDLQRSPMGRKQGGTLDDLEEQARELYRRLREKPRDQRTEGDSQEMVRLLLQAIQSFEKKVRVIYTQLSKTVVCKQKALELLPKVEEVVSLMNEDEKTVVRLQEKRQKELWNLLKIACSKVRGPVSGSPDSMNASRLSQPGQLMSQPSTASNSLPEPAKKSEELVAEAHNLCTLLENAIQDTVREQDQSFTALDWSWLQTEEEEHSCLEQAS
Sequence of UniProt Q00535 (whole entry, looked up): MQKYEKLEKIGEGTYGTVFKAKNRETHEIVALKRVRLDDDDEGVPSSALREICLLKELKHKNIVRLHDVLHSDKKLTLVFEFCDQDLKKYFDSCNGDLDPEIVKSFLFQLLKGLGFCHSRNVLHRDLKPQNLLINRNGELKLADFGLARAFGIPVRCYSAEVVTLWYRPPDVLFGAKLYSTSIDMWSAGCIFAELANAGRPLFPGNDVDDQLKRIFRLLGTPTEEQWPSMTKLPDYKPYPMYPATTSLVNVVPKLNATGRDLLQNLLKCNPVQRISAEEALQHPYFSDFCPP

Study 1 — cell line: HaCaT; tested at: 100 µM; time: 36 h
For `Clc1ccc(C(Cn2ccnc2)OCc2ccc(Sc3ccccc3)cc2)c(Cl)c1` (stereo not drawn), the viability was 8.73%.
`CC(N)[C@]12C[C@H]3C[C@H](C[C@H](C3)C1)C2` (stereo partly drawn) has a viability of 56.8%.
`O=C(/C=C/c1cccc(S(=O)(=O)Nc2ccccc2)c1)NO` gave a viability of 6.99%.
`CN(Cc1cc(Br)cc(Br)c1N)C1CCCCC1` gave a viability of 35.9%.
With `Cc1ccc(C)c(OCCCC(C)(C)C(=O)O)c1` the viability was 98.9%.
The viability of `CC(=O)CCCCn1c(=O)c2c(ncn2C)n(C)c1=O` is reported as 56.1%.
`Nc1ccc(S(=O)(=O)Nc2nccs2)cc1` gave a viability of 61.7%.
`CO/N=C(\C(=O)N[C@@H]1C(=O)N2C(C(=O)O)=C(COC(N)=O)CS[C@H]12)c1ccco1` gave a viability of 114%.
For `CC[C@H](C)C[C@H](C)CCCCCCCCC(=O)N[C@H]1C[C@@H](O)[C@@H](NCCN)NC(=O)[C@@H]2[C@@H](O)CCN2C(=O)[C@H]([C@H](O)CCN)NC(=O)[C@H]([C@H](O)[C@@H](O)c2ccc(O)cc2)NC(=O)[C@@H]2C[C@@H](O)CN2C(=O)[C@H]([C@@H](C)O)NC1=O`, the viability was 36.6%.
The viability of `C[C@H]1O[C@@H](O[C@H]2CC[C@@]3(C)[C@@H](CC[C@]4(C)[C@@H]3C=C[C@]35OC[C@@]6(CCC(C)(C)C[C@H]63)[C@@H](O)C[C@]54C)[C@]2(C)CO)[C@H](O)[C@@H](O[C@@H]2O[C@H](CO)[C@@H](O)[C@H](O)[C@H]2O)[C@H]1O` is reported as 6.58%.
`C=CC[C@@H]1/C=C(\C)C[C@H](C)C[C@H](OC)[C@H]2O[C@@](O)(C(=O)C(=O)N3CCCC[C@H]3C(=O)O[C@H](/C(C)=C/[C@@H]3CC[C@@H](O)[C@H](OC)C3)[C@H](C)[C@@H](O)CC1=O)[C@H](C)C[C@@H]2OC` gave a viability of 5.92%.

Study 2 — cell line: 1205Lu melanoma
For `CNCCC=C1c2ccccc2CCc2ccccc21`, the IC50 was 13.2 µM.
`CN(C)CCCN1c2ccccc2Sc2ccc(C(F)(F)F)cc21` gave an IC50 of 12.2 µM.
The IC50 of `CN(C)CCCN1c2ccccc2CCc2ccccc21` is reported as 42.3 µM.
`Fc1ccc([C@@H]2CCNC[C@H]2COc2ccc3c(c2)OCO3)cc1` has an IC50 of 8 µM.
The IC50 of `CN1CCN(CCCN2c3ccccc3Sc3ccc(C(F)(F)F)cc32)CC1` is reported as 9.8 µM.
`CN1CCc2c(c3ccccc3n2Cc2ccccc2)C1` gave an IC50 of 110 µM.
`CN(C)CCC=C1c2ccccc2C=Cc2ccccc21` has an IC50 of 34.6 µM.
For `OC1(c2ccc(Cl)c(C(F)(F)F)c2)CCN(CCCC(c2ccc(F)cc2)c2ccc(F)cc2)CC1`, the IC50 was 5.2 µM.
The IC50 of `OCCN1CCN(CCCN2c3ccccc3Sc3ccc(Cl)cc32)CC1` is reported as 9.3 µM.
`COCC(=O)O[C@]1(CCN(C)CCCc2nc3ccccc3[nH]2)CCc2cc(F)ccc2[C@@H]1C(C)C` has an IC50 of 4.9 µM.
For `CN(C)CCCN1c2ccccc2Sc2ccccc21`, the IC50 was 36.6 µM.
`OCCN1CCN(CCC=C2c3ccccc3Sc3ccc(C(F)(F)F)cc32)CC1` gave an IC50 of 7.7 µM.
For `O=C1NCCN1CCN1CCC(c2cn(-c3ccc(F)cc3)c3ccc(Cl)cc23)CC1`, the IC50 was 2 µM.

Study 3 — observed: enzyme activity; mode: inhibitor; tested at: 0.5 µM; baseline: control
Compound: COc1cc2ncnc(N3CCN(C(=O)Nc4ccc(Oc5ccccc5)cc4)CC3)c2cc1OC
The remaining activity was 88.4% (MAPK9 (Homo sapiens, UniProt P45984)).
For IKBKB (Homo sapiens, UniProt O14920): remaining activity read 102%.
The remaining activity was 70.9% (CAMK2D (Homo sapiens, UniProt Q13557)).
IKBKE (Homo sapiens, UniProt Q14164) — remaining activity: 98.9%.
MAP3K3 (Homo sapiens, UniProt Q99759) — remaining activity: 83.7%.
TGFBR2 (Homo sapiens, UniProt P37173) — remaining activity: 102%.
The remaining activity was 105% (STK11 (Homo sapiens, UniProt Q15831)).
GRK3 (Homo sapiens, UniProt P35626) — remaining activity: 106%.
For Tyrosine-protein kinase Lyn, isoform B (LYN, Homo sapiens, UniProt P07948): remaining activity read 102%.
For OXSR1 (Homo sapiens, UniProt O95747): remaining activity read 119%.
It gave 99.5% for remaining activity (TGFBR1 (Homo sapiens, UniProt P36897)).
For CAMKK2 (Homo sapiens, UniProt Q96RR4): remaining activity read 81.6%.
For DAPK2 (Homo sapiens, UniProt Q9UIK4): remaining activity read 95%.
It gave 97.5% for remaining activity (DAPK1 (Homo sapiens, UniProt P53355)).
For Protein kinase C beta type, isoform beta-I (PRKCB, Homo sapiens, UniProt P05771): remaining activity read 94.5%.
It gave 97.9% for remaining activity (STK10 (Homo sapiens, UniProt O94804)).
The remaining activity was 83.2% (STK39 (Homo sapiens, UniProt Q9UEW8)).
It gave 98.7% for remaining activity (cGMP-dependent protein kinase 1, isoform beta (PRKG1, Homo sapiens, UniProt Q13976)).
It gave 96% for remaining activity (PRKACA (Homo sapiens, UniProt P17612)).
Cyclin-dependent kinase 5, with p25 (CDK5, Homo sapiens, UniProt Q00535) — remaining activity: 77.1%.
The remaining activity was 102% (CHEK2 (Homo sapiens, UniProt O96017)).
For Cyclin-dependent kinase 4, with cyclin D1 (CDK4, Homo sapiens, UniProt P11802): remaining activity read 101%.
NEK2 (Homo sapiens, UniProt P51955) — remaining activity: 81.3%.
It gave 98% for remaining activity (PRKCA (Homo sapiens, UniProt P17252)).

Study 4 — tested at: 0.1 µM
SMILES: Cc1cc(C)c(-n2ccn3nc(-c4cccnc4)cc23)cc1NC(=O)c1cc(C#N)cc(S(F)(F)(F)(F)F)c1
For GSK3A (Homo sapiens, UniProt P49840); cell-free assay, competition with immobilised ligand: remaining binding read 100%.
The remaining binding was 62.8% (TBK1 (Homo sapiens, UniProt Q9UHD2); cell-free assay, competition with immobilised ligand).
It gave 75.5% for remaining binding (NEK7 (Homo sapiens, UniProt Q8TDX7); cell-free assay, competition with immobilised ligand).
For MET (Homo sapiens, UniProt P08581, M1250T); cell-free assay, competition with immobilised ligand: remaining binding read 100%.
STK39 (Homo sapiens, UniProt Q9UEW8); cell-free assay, competition with immobilised ligand — remaining binding: 64.6%.
It gave 100% for remaining binding (RIOK3 (Homo sapiens, UniProt O14730); cell-free assay, competition with immobilised ligand).
It gave 81.2% for remaining binding (CDKL3 (Homo sapiens, UniProt Q8IVW4); binding, competition with immobilised ligand).
For CSF1R (Homo sapiens, UniProt P07333); cell-free assay, competition with immobilised ligand: remaining binding read 85.5%.
It gave 98.1% for remaining binding (MAP3K4 (Homo sapiens, UniProt Q9Y6R4); cell-free assay, competition with immobilised ligand).
It gave 100% for remaining binding (TLK2 (Homo sapiens, UniProt Q86UE8); cell-free assay, competition with immobilised ligand).
It gave 88.4% for remaining binding (CSNK1A1L (Homo sapiens, UniProt Q8N752); cell-free assay, competition with immobilised ligand).
The remaining binding was 100% (FLT3 (Homo sapiens, UniProt P36888); cell-free assay, competition with immobilised ligand).
The remaining binding was 74.9% (PIKFYVE (Homo sapiens, UniProt Q9Y2I7); cell-free assay, competition with immobilised ligand).
It gave 100% for remaining binding (CDKL5 (Homo sapiens, UniProt O76039); binding, competition with immobilised ligand).
It gave 91.6% for remaining binding (EGFR (Homo sapiens, UniProt P00533, G719C); cell-free assay, competition with immobilised ligand).
For DDR2 (Homo sapiens, UniProt Q16832); binder, KINOMEscan competition binding; baseline: DMSO: remaining binding read 1.8%.
PIK3CB (Homo sapiens, UniProt P42338); cell-free assay, competition with immobilised ligand — remaining binding: 89.1%.
For Tyrosine-protein kinase ABL1, non-phosphorylated (ABL1, Homo sapiens, UniProt P00519, Q252H); cell-free assay, competition with immobilised ligand: remaining binding read 31.4%.
It gave 94.8% for remaining binding (EGFR (Homo sapiens, UniProt P00533, G719S); cell-free assay, competition with immobilised ligand).
The remaining binding was 100% (PKMYT1 (Homo sapiens, UniProt Q99640); cell-free assay, competition with immobilised ligand).
It gave 86.2% for remaining binding (Cyclin-dependent kinase 4, with cyclin D3 (CDK4, Homo sapiens, UniProt P11802); cell-free assay, competition with immobilised ligand).
The remaining binding was 60.4% (CAMK1 (Homo sapiens, UniProt Q14012); cell-free assay, competition with immobilised ligand).
For CAMK2G (Homo sapiens, UniProt Q13555); cell-free assay, competition with immobilised ligand: remaining binding read 93.4%.
For MAP3K12 (Homo sapiens, UniProt Q12852); cell-free assay, competition with immobilised ligand: remaining binding read 82.5%.
